Measurements collected from several papers.
A part holds a random share of what one study measured. Changes are numbered by the printed parent chain.
Sequence of UniProt O23661 (whole entry, looked up): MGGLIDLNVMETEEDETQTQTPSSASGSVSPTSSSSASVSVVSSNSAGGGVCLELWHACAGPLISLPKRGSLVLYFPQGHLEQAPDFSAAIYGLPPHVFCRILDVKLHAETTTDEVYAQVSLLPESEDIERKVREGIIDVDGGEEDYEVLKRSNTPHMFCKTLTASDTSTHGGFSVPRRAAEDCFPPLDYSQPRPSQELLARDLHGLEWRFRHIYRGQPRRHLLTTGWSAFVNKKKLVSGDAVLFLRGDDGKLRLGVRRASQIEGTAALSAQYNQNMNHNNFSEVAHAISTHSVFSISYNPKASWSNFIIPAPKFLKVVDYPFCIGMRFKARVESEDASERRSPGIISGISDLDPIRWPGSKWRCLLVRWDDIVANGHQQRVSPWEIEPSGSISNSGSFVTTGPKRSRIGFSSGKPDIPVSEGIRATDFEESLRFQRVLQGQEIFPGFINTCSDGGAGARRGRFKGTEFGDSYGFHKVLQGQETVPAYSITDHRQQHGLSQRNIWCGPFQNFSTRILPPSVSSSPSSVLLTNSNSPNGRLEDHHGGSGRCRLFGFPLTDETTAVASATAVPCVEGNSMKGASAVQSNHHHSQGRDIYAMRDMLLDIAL
Sequence of UniProt Q8RYC8 (whole entry, looked up): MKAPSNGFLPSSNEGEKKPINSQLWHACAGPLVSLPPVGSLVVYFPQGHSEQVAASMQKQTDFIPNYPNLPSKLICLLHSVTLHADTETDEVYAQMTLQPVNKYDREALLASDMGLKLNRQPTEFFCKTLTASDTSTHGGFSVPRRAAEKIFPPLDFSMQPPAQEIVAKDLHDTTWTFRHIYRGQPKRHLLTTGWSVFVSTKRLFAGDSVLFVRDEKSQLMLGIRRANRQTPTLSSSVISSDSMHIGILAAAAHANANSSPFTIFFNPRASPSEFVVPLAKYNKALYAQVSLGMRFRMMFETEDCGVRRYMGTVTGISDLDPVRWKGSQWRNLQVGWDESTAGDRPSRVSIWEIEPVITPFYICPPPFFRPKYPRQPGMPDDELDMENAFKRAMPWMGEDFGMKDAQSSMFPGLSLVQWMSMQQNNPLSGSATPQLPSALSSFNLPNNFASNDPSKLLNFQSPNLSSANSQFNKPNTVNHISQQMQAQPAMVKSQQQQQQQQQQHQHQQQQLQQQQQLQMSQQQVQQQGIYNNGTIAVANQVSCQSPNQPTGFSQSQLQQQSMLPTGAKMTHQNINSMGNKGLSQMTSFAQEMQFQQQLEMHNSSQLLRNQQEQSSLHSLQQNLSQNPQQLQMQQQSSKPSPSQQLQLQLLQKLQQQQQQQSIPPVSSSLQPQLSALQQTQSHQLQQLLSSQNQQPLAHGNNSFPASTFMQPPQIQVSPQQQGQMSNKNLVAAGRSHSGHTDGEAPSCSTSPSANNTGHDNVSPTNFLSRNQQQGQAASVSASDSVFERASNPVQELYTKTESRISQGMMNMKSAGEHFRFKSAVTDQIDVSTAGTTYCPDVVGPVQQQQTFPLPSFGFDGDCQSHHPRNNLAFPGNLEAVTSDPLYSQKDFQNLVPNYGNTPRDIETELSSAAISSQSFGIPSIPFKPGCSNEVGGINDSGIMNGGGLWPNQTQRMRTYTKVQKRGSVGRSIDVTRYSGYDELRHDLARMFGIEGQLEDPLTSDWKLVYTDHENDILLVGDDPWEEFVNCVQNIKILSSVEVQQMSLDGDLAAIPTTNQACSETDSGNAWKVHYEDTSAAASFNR
Sequence of UniProt Q94JM3 (whole entry, looked up): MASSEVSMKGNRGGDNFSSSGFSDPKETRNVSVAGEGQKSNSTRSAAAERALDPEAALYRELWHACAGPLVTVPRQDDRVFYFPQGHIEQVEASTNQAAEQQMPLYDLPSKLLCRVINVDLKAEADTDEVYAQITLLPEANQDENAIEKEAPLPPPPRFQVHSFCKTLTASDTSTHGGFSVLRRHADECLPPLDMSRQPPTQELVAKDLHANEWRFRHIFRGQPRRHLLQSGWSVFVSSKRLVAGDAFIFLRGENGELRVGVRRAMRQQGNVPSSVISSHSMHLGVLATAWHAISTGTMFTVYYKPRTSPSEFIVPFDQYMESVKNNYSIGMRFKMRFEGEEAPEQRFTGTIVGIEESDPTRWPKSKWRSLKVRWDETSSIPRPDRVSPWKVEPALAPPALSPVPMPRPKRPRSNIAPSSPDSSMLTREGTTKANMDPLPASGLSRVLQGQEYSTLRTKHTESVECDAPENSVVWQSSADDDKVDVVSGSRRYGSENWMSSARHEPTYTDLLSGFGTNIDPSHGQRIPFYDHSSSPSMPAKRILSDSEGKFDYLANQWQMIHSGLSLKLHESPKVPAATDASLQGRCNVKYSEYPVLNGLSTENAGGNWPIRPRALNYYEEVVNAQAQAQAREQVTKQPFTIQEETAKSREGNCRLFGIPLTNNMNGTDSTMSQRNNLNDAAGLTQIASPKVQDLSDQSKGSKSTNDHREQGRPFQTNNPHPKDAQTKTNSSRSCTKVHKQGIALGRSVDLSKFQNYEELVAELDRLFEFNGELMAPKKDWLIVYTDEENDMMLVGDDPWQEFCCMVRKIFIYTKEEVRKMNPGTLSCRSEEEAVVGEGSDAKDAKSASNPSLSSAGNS
Sequence of UniProt Q8H174 (whole entry, looked up): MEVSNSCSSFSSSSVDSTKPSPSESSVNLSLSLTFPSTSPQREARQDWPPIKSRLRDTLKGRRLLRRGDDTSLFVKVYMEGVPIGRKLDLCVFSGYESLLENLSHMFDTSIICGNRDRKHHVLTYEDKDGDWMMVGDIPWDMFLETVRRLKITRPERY
Sequence of UniProt Q84WU6 (whole entry, looked up): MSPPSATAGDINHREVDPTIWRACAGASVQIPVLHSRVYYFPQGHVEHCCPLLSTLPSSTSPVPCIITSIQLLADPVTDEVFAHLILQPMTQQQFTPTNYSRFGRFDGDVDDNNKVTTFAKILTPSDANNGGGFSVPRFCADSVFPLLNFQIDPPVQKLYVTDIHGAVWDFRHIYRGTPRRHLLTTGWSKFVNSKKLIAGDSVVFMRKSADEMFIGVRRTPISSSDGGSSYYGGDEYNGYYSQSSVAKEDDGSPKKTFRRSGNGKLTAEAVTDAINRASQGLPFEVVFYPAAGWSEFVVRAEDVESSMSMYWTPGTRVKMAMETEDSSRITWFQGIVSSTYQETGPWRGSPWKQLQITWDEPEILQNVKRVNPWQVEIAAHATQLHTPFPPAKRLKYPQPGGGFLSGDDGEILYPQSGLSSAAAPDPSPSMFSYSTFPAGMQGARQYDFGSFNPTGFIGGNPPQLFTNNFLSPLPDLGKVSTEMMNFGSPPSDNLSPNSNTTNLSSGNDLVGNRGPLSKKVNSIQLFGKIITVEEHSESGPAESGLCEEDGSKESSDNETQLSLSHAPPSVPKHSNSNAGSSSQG

Study 1
Sequence: B1 (IAA30)
Technique: two-hybrid
Notes: weak activation fusion
Reading: higher = firmer interaction
Endpoint: positive tests
B1: IAA30 (Arabidopsis thaliana, UniProt Q9M1R4); chain MGRGRSSSSSSIESSCKSNPFGVSSSNTRNLSTDLRLGLSFGSSSGQYYNGGDNHEYDGVGAAEEMMIMEEEEQNECNSVGSFYVKVNMEGVPIGRKIDLLSLNGYHDLITTLDYMFNASILWAEEEDMCSEKSHVLTYADKEGDWMMVGDVPWEMFLSSVRRLKISRAYHY
ARF17 (Arabidopsis thaliana, UniProt Q84WU6); relative to: out of 3 tests: 0
ARF19 948-1086 (Arabidopsis thaliana, UniProt Q8RYC8); relative to: out of 4 tests: 3
ARF2 727-859 (Arabidopsis thaliana, UniProt Q94JM3); relative to: out of 4 tests: 0
IAA31 (Arabidopsis thaliana, UniProt Q8H174); relative to: out of 4 tests: 1
ETT (Arabidopsis thaliana, UniProt O23661); relative to: out of 4 tests: 0

Study 2
Target: CCNE1, cyclin fold, Cln2 fusion (human)
Technique: yeast growth competition, sequencing
Matrix: yeast
Notes: weak parent motif
Relative to: not given
Reading: higher = stronger binding
Endpoint: normalised enrichment score
Starting sequence: E2F8 docking peptide (human); FVPQRKLEVSTED
E12A: -0.344
V9L: -0.215
R5K V9L: 0.00291
R5K: -0.0967
E8A: -0.047
F1A: -0.322
K6A: 0.413
S10A: -0.0268
R5A L7A: -0.421
T11A: -0.394
P3A: -0.142

Study 3
Target: Ras GTPase-activating protein-binding protein 1, RRM domain (G3BP1, Homo sapiens, UniProt Q13283)
Sequence of UniProt Q13283 (whole entry, looked up): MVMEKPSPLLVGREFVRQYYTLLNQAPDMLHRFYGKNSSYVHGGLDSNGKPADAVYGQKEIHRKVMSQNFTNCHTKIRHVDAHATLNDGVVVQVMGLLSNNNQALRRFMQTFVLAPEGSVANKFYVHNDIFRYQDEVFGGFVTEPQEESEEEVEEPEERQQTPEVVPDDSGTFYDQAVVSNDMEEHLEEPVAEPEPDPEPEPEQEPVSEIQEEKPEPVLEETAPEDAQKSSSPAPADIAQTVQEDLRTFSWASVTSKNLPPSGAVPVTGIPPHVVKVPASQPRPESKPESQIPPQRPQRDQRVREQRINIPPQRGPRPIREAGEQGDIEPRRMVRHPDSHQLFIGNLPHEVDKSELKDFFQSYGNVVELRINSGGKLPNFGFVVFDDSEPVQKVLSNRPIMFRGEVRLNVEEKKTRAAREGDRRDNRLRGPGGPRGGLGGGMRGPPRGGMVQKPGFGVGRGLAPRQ
Technique: RNA Bind-n-Seq
Molecule type: RNA
Matrix: in vitro
Concentration: 1 µM
Notes: whole 134-nt RNA, ends assumed
Added: 150 mM KCl
Relative to: input library
Reading: higher = stronger binding
Endpoint: log2 enrichment
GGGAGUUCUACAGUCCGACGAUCAAGUCCUGUGCUACACAUCGUAUGUACCGAAUCGGAAAAGGGAAAAGGAAAAGGGGAAAGUAUUAUGUUACGCCGUUCGGAUCUGCACUUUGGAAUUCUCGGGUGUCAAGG: -0.213
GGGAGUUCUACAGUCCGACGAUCAGUCCUGUGCUACACAUCGUAUGUACCGAAUCGGGUUUUGGGGUUUUGGUUUUGGGGAAAGUAUUAUGUUACGCCGUUCGGAUCUGCACUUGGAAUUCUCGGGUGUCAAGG: -0.0713
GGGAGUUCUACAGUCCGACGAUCCCUGUGCUACACAUCGUAUGUACCGAAUCGGGGAAAAAAGGGGAAAAAAGGAAAAAAGGGGAAAGUAUUAUGUUACGCCGUUCGGAUCUGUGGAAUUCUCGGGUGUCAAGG: -0.0918
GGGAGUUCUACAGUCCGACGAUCCACAGACAACACGCACCCACACAGACACAGAGGGAAGGGGUUGGGAUGGGGACAGGGUGAACAGCAGGGCGGGGUAGGACCCCAGCCCCUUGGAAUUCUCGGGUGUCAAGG: -0.0541
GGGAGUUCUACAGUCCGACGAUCAAGUCCUGUGCUACACAUCGUAUGUACCGAAUCAAAUUUAAAUUUAAACCCCCAAAAAAGUAUUAUGUUACGCCGUUCGGAUCUGCACUUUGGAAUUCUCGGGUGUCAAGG: -0.52
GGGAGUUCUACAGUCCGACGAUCCCUCAAGUCCUGUGCUACACAUCGUAUGUACCGAAUCGGAGGUUUGGUUUGGAAAGUAUUAUGUUACGCCGUUCGGAUCUGCACUUCCAGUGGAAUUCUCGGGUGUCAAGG: -0.27
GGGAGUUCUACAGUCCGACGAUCCAAGUCCUGUGCUACACAUCGUAUGUACCGAAUCGGUUUUUGGAGGUUUUUUUGGAAAGUAUUAUGUUACGCCGUUCGGAUCUGCACUUCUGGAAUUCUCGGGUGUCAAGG: -0.164
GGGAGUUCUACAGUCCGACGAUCAAGUCCUGUGCUACACAUCGUAUGUACCGAAUCGGCCCCCGGCCCCCGGGCCCCCGGAAAGUAUUAUGUUACGCCGUUCGGAUCUGCACUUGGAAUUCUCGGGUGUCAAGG: -0.448
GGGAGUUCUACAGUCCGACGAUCGCAGGAAGUAAAAACAAAUGGACAUGCUUCGGAUAGUGGCAGGGGUGGGGGUUGCUAAGGAAAGGGUGGGAUGGGAGUGGGUAAAGAGUUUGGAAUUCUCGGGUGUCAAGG: 1.57
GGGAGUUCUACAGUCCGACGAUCUGGCCCUGGUGGCAUGCGGGGAGGAAGAGGUGGCCUCAUGGAUCGUGGUGGUCCCGGUGAAAUGUUCAGAGGUGGCCGUGGUGGAGACAGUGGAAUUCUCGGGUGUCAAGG: 0.822

Study 4
Target: ABI1, truncated, D143A, DHFR fusion (Arabidopsis thaliana)
Technique: DHFR PCA, deep sequencing
Matrix: yeast
Notes: methotrexate growth selection, single substitutions
Added: (+)-ABA 4.8 µM
Relative to: wild-type fitted maximum
Reading: higher = stronger binding
Endpoint: relative binding score
Starting sequence: PYL1, truncated, DHFR fusion (Arabidopsis thaliana); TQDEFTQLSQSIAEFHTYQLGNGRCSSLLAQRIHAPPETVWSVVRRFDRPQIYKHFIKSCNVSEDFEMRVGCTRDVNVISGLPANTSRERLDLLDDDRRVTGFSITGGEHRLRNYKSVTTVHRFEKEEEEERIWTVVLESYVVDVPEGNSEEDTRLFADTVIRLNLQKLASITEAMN
E130F: 57.7%
L166W: -17.6%
I12F: 2.48%
V121N: -16.2%
K168W: 65.2%
D92N: 22.8%
S9A: 79.5%
G148P: 11%
T86V: 46.4%
Y18M: 28.8%
A30I: 67.8%
G21R: 71.2%
Q7H: 70%
E152R: 41.9%
V40H: 17.5%
F103H: -2.3%
I172E: 17.6%
A158L: 94.8%
F15K: -0.679%

Study 5
Target: Sal-like protein 4, full length isoform A (SALL4, Homo sapiens, UniProt Q9UJQ4, residues 1-1053)
Sequence of UniProt Q9UJQ4 (whole entry, looked up): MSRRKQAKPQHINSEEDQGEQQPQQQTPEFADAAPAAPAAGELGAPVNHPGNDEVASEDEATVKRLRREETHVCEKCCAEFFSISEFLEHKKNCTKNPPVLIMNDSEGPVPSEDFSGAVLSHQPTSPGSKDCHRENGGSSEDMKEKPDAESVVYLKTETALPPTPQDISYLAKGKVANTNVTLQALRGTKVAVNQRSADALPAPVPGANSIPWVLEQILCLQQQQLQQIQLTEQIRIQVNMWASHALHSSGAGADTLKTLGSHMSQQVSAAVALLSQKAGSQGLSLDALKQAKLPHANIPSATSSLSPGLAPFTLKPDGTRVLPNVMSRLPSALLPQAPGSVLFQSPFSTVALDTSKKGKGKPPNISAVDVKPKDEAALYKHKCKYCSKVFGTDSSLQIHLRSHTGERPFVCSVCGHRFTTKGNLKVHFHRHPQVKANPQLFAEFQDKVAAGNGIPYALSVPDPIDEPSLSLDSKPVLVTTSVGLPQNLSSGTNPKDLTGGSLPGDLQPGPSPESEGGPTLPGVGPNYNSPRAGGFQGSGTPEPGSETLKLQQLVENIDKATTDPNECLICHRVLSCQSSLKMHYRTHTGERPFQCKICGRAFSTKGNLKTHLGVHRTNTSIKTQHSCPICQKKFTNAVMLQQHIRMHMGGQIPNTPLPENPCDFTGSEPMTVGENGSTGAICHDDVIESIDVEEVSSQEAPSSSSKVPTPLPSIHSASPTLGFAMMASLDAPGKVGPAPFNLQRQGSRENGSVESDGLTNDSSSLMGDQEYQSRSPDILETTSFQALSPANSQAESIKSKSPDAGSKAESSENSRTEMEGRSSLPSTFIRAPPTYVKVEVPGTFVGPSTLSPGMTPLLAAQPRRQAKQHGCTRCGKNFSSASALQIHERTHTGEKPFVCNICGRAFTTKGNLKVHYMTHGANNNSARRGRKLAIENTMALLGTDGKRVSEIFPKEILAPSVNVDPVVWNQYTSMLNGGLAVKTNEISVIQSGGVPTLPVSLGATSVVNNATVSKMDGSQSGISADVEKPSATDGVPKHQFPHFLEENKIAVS
Technique: universal PBM
Molecule type: double-stranded DNA, one strand shown
Matrix: in vitro
Concentration: 600 nM
Notes: 8-mer, flanks averaged, mean of replicates
Reading: higher = stronger binding
Endpoint: E-score
AAGGTGAG: -0.113
ACCGACAC: -0.137
CTACGAGC: -0.194
CAGCAGTC: -0.15
GAAATTTA: 0.312
ATAGGCGA: 0.0512
TACCGTCA: -0.073
TGACCGAA: -0.0833
ACCGTGAA: -0.155
GTGTACTA: 0.116
TACGAGCA: 0.0088
GGACCCAA: -0.296
TCCCCTAA: 0.00359
AAGAGGTC: -0.121
CACTTGCG: -0.124
AACCGATA: 0.162
TCACAAGA: 0.0193
CGCTGAAA: -0.0203
CTCTTAAG: 0.0617

Mixed results
PhoQ, residues 284 288 289 292 302 303 SSYNSA — fold induction (PhoP, residues 12 14 15 18 19 LHHSG (Escherichia coli, UniProt P23836); Sort-seq, refers to: YFP reporter; E. coli; PhoQ-PhoP variant library, added: 10 µM Mg2+; relative to: high Mg2+ state, higher = stronger signaling): 16.6

A few entries again (study 4):
Y18M: 28.8%
A30I: 67.8%
G21R: 71.2%
Q7H: 70%
